Results pooled from the literature.
Numbered parts are unrelated; each lists some results of a single study.

Series 1 — method: protein binding microarray; molecule type: double-stranded DNA, one strand shown; matrix: in vitro; concentration: not given; relative to: not given; reading: higher = stronger binding
Target: Histone acetyltransferase KAT6A, winged helix 1, GST fusion (KAT6A, Homo sapiens, UniProt Q92794, residues 1-85)
Notes: 8-mer, flanks averaged, mean of 2 arrays, mostly near background
Target sequence (chain): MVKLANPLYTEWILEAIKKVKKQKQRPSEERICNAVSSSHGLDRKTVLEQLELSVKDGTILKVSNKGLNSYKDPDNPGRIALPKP
| Sequence | E-score |
| --- | --- |
| TCATACGA | -0.0973 |
| CATGTCAC | 0.0375 |
| ACGCTACG | 0.132 |
| GCCAAACA | 0.0449 |
| CGTCACGA | 0.0944 |
| CGCTTGTA | 0.236 |
| AGGTCACT | -0.281 |
| AAAACTGA | -0.178 |
| AGTACAAC | -0.155 |
| ACCACGCG | 0.296 |
| TACACACA | -0.127 |
| TCCATGGA | -0.11 |
| CGAGGTAC | -0.0563 |
| GAGCCGTA | 0.317 |
| AGTTCACA | -0.202 |
| GTAGGAAA | -0.0944 |
| CGTCCGAA | 0.142 |
| AGACTGCG | 0.117 |
| CTGCCCTC | -0.129 |

Series 2 — method: RNA Bind-n-Seq; molecule type: RNA; matrix: in vitro; concentration: not given; relative to: input RNA pool; reading: higher = stronger binding
Target: RING finger protein unkempt homolog, zinc fingers 1-6, GST-SBP tag (UNK, Homo sapiens, UniProt Q9C0B0, residues 30-357)
UniProt Q9C0B0, sequence (30-357, looked up): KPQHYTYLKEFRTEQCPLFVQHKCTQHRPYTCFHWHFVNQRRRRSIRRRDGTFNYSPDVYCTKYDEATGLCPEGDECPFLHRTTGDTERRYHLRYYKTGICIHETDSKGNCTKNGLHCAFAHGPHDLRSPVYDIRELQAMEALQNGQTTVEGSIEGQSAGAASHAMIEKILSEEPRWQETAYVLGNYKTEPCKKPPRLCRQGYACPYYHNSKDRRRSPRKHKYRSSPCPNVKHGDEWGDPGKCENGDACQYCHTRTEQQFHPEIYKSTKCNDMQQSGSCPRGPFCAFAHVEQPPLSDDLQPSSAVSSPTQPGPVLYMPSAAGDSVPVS
Notes: RNA with constant flanks, human-mouse chimeric sites, ends assumed
All sequences stand within: GGGAGUUCUACAGUCCGACGAUC … CAACAGAGGAUUGAGCAUCA
| Sequence | bound/input enrichment |
| --- | --- |
| CAGCGCCGAGGCCGCGGGUGCCCGCCGGGCCUCCCCAGCAGCAGCCAUGGGCAUCAAAUUUUUAGAAGUUAUCAAACCAUUCUGUGCAGUUCUACCAGAAAUUCAGAAGCCUGAAAGGAA | 0.849 ratio |
| AUGGAGAAGGAUUCUCUGCCCCGCUUUGUGCGCUCUGAAUUUUAUAAGGAGUUAAUCAAGUAGUCAUCUGGUCAGGCUUCCAAAAGUUGCCCUGUGAGUUGAGUUACAUAAUAACCCGCA | 0.143 ratio |
| UAAGUCCUGUGCCAGCACUUCGCUCAUAAAGUUUUAAAUUCUGGACCAAUUGUGUUUAUCUUUAGAAUAUUGUAUCCAAUACUUUGCCUAGUAUGUAACUCACUCUUACUGAUAAUAAAA | 4.08 ratio |
| UACUCAACUUUCUUGCCACGUUUUGAAUUCCAAGACAUUAUUCCUCCAGAUGACUUUCUAACGAGUGAUGAAGAGCAAGAUUUGGUUUUAUUUGGAACUAUGAGAGGACAAGUUGUUGGA | 0.169 ratio |
| CACAGAGGAGAUCUGCUGUUCCUCACGAAUUUCCGGGAAGACCCAAUCAGAGCUGGUGAAAUAGUUGUUUUUAAGGUUGAAGGAAGAGACAUUCCAAUAGUUCACAGAGUAAUCAAGGUU | 1.34 ratio |
| AUUCCGAUUAUGGACACCGGUGAAAACCCAGAGGUGCCCUUCCCUCGGGACAUGAUUGACUUAGAGGCCAAUUUUGAGAAGAUUGAAAAUGAACUGAAGGAAAUCAACACAAACCAGGAA | 0.115 ratio |
| UCUUAACUUAUUCAUUUAACUUAUUUUUAUAGCUAGAGCAAUAUUGUUAGUCUUAGACAAUAGCUCACAUUUUUUGAGAAGCAUGCCCUCCCUAUCCAUUUGUCUUAUAACAUGACCCAG | 62.5 ratio |
| AUGCAGUAUGAGACCAACAGCAUGGACUUCAAAGUUGGGGCGGAUGGGACAGUCUUCGCCACCCGGGAGCUGCAGGUCCCCUCCGAGCAGGUGGCGUUCACGGUGACUGCAUGGGACAGC | 0.332 ratio |

Series 3 — method: RNA Bind-n-Seq; molecule type: RNA; matrix: in vitro; concentration: 200 nM; notes: whole 134-nt RNA, ends assumed; together with: 150 mM LiCl; relative to: input library; reading: higher = stronger binding; all molecules: 7-deaza-guanosine replaces G
Target: Fragile X messenger ribonucleoprotein 1, C-terminal low-complexity region (Fmr1, Mus musculus, UniProt P35922)
All sequences stand within: GGGAGUUCUACAGUCCGACGAUC … UGGAAUUCUCGGGUGUCAAGG
| Sequence | log2 enrichment |
| --- | --- |
| CUCAAGUCCUGUGCUACACAUCGUAUGUACCGAAUCGGAAGGGAAGGGGAAGGAAAGUAUUAUGUUACGCCGUUCGGAUCUGCACUUCCA | -0.249 |
| UCAAGUCCUGUGCUACACAUCGUAUGUACCGAAUCGGGAAAGGGUUUGGGUGGGAAAGUAUUAUGUUACGCCGUUCGGAUCUGCACUUCC | -1.58 |
| UCUAUGUAGCAUCCAGGUACUACUUCCUUUGGAAUGUCAGUAUUUAAUCUGAGCAAUGCGAUUGUGGGCAGUGGAAUCCUUGGGCUUUCU | -2.37 |
| ACCAUGCAGGUGGGCAUCUUUGGGAAGUGGGGCAAGGGGGGGAGAGGGAGGGGGGUAACACUUUGGGAACAGGUGGUCCCAGGUCGUUUC | 1.4 |
| AGUCCUGUGCUACACAUCGUAUGUACCGAAUCGGGCCCCCGGCCCCCGGGGCCCCCGGAAAGUAUUAUGUUACGCCGUUCGGAUCUGCAC | -2.89 |

Series 4 — method: protein-binding microarray; molecule type: double-stranded DNA, one strand shown; matrix: in vitro; concentration: 2200 nM top; notes: 60-bp whole probe; together with: salmon DNA 0.4 mg/ml; relative to: random background probes; reading: higher = stronger binding; all sequences stand within: GCCTAGCAC … GTCTTGATTCGCTTGACGCTGCTG
Target: Interferon regulatory factor 7, full length, phosphomimetic (IRF7, Homo sapiens, UniProt Q92985, residues 1-503, S471D/S472D/S475D/S476D/S477D/S483D/S484D/S487D)
Construct (chain): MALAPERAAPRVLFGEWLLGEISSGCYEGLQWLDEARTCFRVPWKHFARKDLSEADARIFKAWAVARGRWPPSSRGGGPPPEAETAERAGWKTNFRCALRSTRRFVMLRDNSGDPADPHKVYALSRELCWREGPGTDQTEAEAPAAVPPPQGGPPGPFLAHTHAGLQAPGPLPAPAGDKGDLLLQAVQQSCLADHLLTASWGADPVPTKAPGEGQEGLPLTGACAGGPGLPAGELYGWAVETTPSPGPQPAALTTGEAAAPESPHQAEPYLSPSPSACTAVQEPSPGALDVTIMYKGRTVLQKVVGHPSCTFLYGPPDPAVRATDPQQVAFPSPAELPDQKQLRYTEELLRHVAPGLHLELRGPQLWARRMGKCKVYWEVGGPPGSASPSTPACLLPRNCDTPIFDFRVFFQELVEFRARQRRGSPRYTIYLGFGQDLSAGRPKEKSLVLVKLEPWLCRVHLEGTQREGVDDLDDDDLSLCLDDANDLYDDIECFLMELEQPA
| Sequence | fitted relative affinity |
| --- | --- |
| TTATAACTGAGTATCGATTAGTGCTAG | -0.124 z-score |
| GACGATCTCAGTTTCGATACGTGCTAG | 4.9 z-score |
| GAATTTCCCACTTTCAGTTCGTGCTAG | 7.52 z-score |
| GACCGTATCGGGACTGGGGACGTGCTA | -0.351 z-score |
| TTAGGACTGGGAACTGGGTTAGTGCTA | -0.997 z-score |
| TTAGGACTGGGTCTCGCTTAGTGCTAG | -0.181 z-score |
| TCATTTTTTTGTATTTTACTGTGCTAG | 1.87 z-score |
| TCACATCTCAAGTAGCCTACTGTGCTA | 1.02 z-score |
| TAATTTTTTAGCTTCTCAATGTGCTAG | 0.277 z-score |
| GACGGACTGGACACTGGCGACGTGCTA | -0.612 z-score |
| TCAGATGTCAAACTCACACTGTGCTAG | 0.436 z-score |
| TCAGTTTTCTCTATTGCACTGTGCTAG | 2.48 z-score |
| GACGGACTGGGTCTAGGGACGTGCTAG | -1.14 z-score |
| TCACCTTAGGTTTTCTGACTGTGCTAG | 1.17 z-score |
| TTCTCTCCCATTCTGAATTCGTGCTAG | 2.31 z-score |
| TTAGACTTCAGTATCGATTAGTGCTAG | 0.214 z-score |
| TTAGGTATCCTTTTCATTTAGTGCTAG | 1.47 z-score |
| TACTTTCTTTTTTTCTTTTAGTGCTAG | 12.7 z-score |

A few entries again (series 1):
| Sequence | E-score |
| --- | --- |
| GCCAAACA | 0.0449 |
| AGTTCACA | -0.202 |
| GAGCCGTA | 0.317 |
